Measured values gathered from unrelated publications.
Numbered parts are unrelated; each lists some results of a single study. Several values in a cell are separate wells, animals, samples, runs or records.
UniProt P49761, sequence (whole entry, looked up): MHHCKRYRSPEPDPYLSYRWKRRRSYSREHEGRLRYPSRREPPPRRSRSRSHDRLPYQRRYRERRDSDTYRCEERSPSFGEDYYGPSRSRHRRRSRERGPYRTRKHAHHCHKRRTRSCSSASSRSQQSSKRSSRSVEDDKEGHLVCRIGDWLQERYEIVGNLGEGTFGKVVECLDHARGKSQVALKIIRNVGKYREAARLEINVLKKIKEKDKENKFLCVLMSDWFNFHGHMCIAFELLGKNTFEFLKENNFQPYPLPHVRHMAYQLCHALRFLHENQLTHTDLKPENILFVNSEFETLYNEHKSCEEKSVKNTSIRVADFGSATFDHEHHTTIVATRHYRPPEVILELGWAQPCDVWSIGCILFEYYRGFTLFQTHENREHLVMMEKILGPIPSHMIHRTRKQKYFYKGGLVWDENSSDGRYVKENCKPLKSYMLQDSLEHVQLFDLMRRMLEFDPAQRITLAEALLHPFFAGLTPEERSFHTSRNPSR
UniProt Q9Y2K2, sequence (whole entry, looked up): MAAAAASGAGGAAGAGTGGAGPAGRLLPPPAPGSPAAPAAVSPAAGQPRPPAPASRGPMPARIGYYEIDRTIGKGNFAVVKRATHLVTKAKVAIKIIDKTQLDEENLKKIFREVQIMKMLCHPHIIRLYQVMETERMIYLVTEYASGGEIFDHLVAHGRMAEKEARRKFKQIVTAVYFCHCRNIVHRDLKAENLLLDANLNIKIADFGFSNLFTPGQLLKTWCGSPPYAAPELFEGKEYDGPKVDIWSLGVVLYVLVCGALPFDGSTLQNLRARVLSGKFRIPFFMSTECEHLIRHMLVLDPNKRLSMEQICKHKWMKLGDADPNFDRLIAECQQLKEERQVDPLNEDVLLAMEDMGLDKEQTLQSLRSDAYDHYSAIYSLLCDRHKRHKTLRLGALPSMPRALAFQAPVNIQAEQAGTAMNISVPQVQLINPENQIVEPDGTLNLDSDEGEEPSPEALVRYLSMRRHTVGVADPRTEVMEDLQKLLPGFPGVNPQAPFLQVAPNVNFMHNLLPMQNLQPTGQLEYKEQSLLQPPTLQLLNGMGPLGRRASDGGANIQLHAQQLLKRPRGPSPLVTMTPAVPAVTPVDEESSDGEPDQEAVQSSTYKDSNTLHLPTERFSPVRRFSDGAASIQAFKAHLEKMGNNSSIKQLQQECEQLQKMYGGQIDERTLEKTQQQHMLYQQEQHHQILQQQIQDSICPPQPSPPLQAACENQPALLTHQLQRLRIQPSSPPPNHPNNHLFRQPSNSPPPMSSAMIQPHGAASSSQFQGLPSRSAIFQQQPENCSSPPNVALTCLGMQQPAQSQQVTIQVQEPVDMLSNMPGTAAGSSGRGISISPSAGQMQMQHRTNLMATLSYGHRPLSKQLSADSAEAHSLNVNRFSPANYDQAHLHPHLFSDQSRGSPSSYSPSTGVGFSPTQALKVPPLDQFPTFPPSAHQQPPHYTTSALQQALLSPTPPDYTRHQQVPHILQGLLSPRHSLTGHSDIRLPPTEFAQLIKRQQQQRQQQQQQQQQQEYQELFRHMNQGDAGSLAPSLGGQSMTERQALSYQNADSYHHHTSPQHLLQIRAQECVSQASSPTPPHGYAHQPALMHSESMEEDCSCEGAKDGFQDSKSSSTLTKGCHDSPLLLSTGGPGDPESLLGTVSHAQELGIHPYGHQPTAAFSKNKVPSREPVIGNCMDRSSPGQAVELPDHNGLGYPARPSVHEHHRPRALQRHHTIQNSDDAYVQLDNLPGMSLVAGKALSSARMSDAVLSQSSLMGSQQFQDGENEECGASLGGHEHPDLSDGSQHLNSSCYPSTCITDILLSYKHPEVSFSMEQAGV

Set 1 — effect on: enzyme activity; concentration: 5 µM; baseline: untreated control
Compound: O=C(Nc1cnn(-c2csc(C(=O)NC3COC3)c2)c1)Nc1c(F)cccc1Cl
| target | remaining activity |
| --- | --- |
| CAMK2G (Homo sapiens, UniProt Q13555) | 89.9% |
| TNIK (Homo sapiens, UniProt Q9UKE5) | 83.1% |
| CLK3 (Homo sapiens, UniProt P49761) | 90.4% |

Set 2 — effect on: enzyme activity; mode: inhibitor; concentration: 10 µM
Target: Calcium/calmodulin-dependent protein kinase type II subunit alpha (CAMK2A, Homo sapiens, UniProt Q9UQM7)
UniProt Q9UQM7, sequence (whole entry, looked up): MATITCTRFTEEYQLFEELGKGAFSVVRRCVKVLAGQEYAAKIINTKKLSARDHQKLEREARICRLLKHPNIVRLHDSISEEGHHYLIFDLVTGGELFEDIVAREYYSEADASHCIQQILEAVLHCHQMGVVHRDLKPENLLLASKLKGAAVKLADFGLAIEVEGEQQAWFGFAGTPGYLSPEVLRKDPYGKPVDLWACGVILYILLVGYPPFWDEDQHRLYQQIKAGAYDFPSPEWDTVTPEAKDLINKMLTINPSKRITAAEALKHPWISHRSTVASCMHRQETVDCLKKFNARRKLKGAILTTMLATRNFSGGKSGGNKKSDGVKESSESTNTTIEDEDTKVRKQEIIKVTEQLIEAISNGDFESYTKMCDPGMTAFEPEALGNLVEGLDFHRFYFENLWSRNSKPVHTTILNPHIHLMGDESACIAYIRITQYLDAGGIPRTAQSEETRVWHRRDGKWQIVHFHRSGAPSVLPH
| SMILES | inhibition |
| --- | --- |
| COc1ccc(-c2cc(=O)c3c(OC)cc(OC)c(OC)c3o2)cc1OC | 19% |
| CN(CCO)CC(O)Cn1cnc2c1c(=O)n(C)c(=O)n2C (stereo not drawn) | -4% |
| O=C(/C=C/c1ccc(O)c(O)c1)O[C@H](Cc1ccc(O)c(O)c1)C(=O)O | -3% |

Set 3 — species: mouse; matrix: microsomes or S9; concentration: 2 µM; time: 0.5 h
| SMILES | remaining compound [%] |
| --- | --- |
| CCc1nc(-c2cccc(-c3noc(-c4ccc(Br)o4)n3)c2)cs1 | 44.9 |
| CCCC(C(=O)O)c1c(C)ncnc1-c1cc(F)c2c(c1C)CCCO2 (stereo not drawn) | > 99 |
| CS(=O)(=O)c1ccc(-c2cc(F)c(OCC3CCNCC3)c(F)c2)cc1 | 42.5 |
| CCC1CC(=O)c2c(Cl)cccc2N1S(=O)(=O)c1ccc2ccccc2c1 (stereo not drawn) | 2.03 |

Set 4 — effect on: cell-free assay; technique: competition with immobilised ligand; concentration: 1 µM
Compound: CS(=O)(=O)NCC[C@H](NC(=O)c1cncc2c1cnn2-c1ccc(F)cc1)c1ccnc(S(C)(=O)=O)c1
| target | remaining binding |
| --- | --- |
| MARK3 (Homo sapiens, UniProt P27448) | 92% |
| TLK1 (Homo sapiens, UniProt Q9UKI8) | 100% |
| Tyrosine-protein kinase ABL1, phosphorylated (ABL1, Homo sapiens, UniProt P00519, T315I) | 100% |
| TGFBR2 (Homo sapiens, UniProt P37173) | 96% |
| CASK (Homo sapiens, UniProt O14936) | 100% |
| LCK (Homo sapiens, UniProt P06239) | 100% |
| SIK3 (Homo sapiens, UniProt Q9Y2K2) | 98% |
| PRKD2 (Homo sapiens, UniProt Q9BZL6) | 94% |
| ITK (Homo sapiens, UniProt Q08881) | 99% |
| GRK7 (Homo sapiens, UniProt Q8WTQ7) | 100% |
| PIK3CA (Homo sapiens, UniProt P42336, C420R) | 98% |
| BTK (Homo sapiens, UniProt Q06187) | 100% |
| PHKG2 (Homo sapiens, UniProt P15735) | 100% |
| IRAK1 (Homo sapiens, UniProt P51617) | 100% |
| PIM2 (Homo sapiens, UniProt Q9P1W9) | 86% |
| Tyrosine-protein kinase JAK2, JH1 (JAK2, Homo sapiens, UniProt O60674) | 100% |
| Tyrosine-protein kinase ABL1, phosphorylated (ABL1, Homo sapiens, UniProt P00519, F317L) | 69% |
| Ribosomal protein S6 kinase alpha-5, N-terminal kinase domain (RPS6KA5, Homo sapiens, UniProt O75582) | 88% |
| AXL (Homo sapiens, UniProt P30530) | 95% |
| WNK2 (Homo sapiens, UniProt Q9Y3S1) | 100% |
| CLK3 (Homo sapiens, UniProt P49761) | 99% |
| ROS1 (Homo sapiens, UniProt P08922) | 94% |
| COQ8B (Homo sapiens, UniProt Q96D53) | 100% |
| MINK1 (Homo sapiens, UniProt Q8N4C8) | 100% |
| MAPK14 (Homo sapiens, UniProt Q16539) | 100% |

Set 5 — cell line: mouse MPNST tumor cells; technique: high-content immunofluorescence imaging; item: nuclear SOX9; concentration: 10 µM; time: 12 h; setting: mean of 2 replicates; baseline: DMSO control; direction: higher = more nuclear SOX9
| Structure (SMILES) | nuclear SOX9 intensity |
| --- | --- |
| OC(c1ccc(-c2ccc(CN3CCN(Cc4ccncc4)CC3)cc2)c(F)c1)(C(F)(F)F)C(F)(F)F | 171 % of DMSO |
| CC[C@@H](C)c1ccc(NC(=O)Cn2cnc3c2c(=O)n(C)c(=O)n3C)cc1 (racemic) | 108 % of DMSO |
| c1ccc(-c2ccc(C(c3ccccc3)n3ccnc3)cc2)cc1 (stereo not drawn) | 126 % of DMSO |
| CC(=O)NCCCS(=O)(=O)O | 99.2 % of DMSO and 114 % of DMSO |
| CC(=O)Nc1c(I)c(C(=O)N[C@H]2C(O)O[C@H](CO)[C@@H](O)[C@@H]2O)c(I)c(N(C)C(C)=O)c1I (stereo partly drawn) | 112 % of DMSO |
| OCCN1CCN(CCCN2c3ccccc3C=Cc3ccccc32)CC1 | 167 % of DMSO |

Set 6 — organism: Sarcocystis neurona; effect on: parasite growth; concentration: 10 µM; time: 96 h
| SMILES | inhibition [%] |
| --- | --- |
| C[C@H](CS)C(=O)N1CCC[C@H]1C(=O)O | -15.1 |
| Cc1cnc(C(=O)NCCc2ccc(S(=O)(=O)NC(=O)NC3CCCCC3)cc2)cn1 | -14.5 |
| CC1CNc2c(cccc2S(=O)(=O)N[C@@H](CCCNC(=N)N)C(=O)N2CC[C@@H](C)C[C@@H]2C(=O)O)C1 (stereo partly drawn) | -5.7 |
| CC(=O)CC(c1ccccc1)c1c(O)c2ccccc2oc1=O (stereo not drawn) | -13.8 |
| CN1[C@@H]2CC[C@H]1C[C@@H](OC(=O)C(CO)c1ccccc1)C2 (stereo partly drawn) | -14 |

Set 7 — effect on: enzyme activity; mode: inhibitor; concentration: 77 µM; baseline: untreated
Target: DNA polymerase theta, ATPase domain (POLQ, Homo sapiens, UniProt O75417)
UniProt O75417, sequence (whole entry, unmodified, looked up): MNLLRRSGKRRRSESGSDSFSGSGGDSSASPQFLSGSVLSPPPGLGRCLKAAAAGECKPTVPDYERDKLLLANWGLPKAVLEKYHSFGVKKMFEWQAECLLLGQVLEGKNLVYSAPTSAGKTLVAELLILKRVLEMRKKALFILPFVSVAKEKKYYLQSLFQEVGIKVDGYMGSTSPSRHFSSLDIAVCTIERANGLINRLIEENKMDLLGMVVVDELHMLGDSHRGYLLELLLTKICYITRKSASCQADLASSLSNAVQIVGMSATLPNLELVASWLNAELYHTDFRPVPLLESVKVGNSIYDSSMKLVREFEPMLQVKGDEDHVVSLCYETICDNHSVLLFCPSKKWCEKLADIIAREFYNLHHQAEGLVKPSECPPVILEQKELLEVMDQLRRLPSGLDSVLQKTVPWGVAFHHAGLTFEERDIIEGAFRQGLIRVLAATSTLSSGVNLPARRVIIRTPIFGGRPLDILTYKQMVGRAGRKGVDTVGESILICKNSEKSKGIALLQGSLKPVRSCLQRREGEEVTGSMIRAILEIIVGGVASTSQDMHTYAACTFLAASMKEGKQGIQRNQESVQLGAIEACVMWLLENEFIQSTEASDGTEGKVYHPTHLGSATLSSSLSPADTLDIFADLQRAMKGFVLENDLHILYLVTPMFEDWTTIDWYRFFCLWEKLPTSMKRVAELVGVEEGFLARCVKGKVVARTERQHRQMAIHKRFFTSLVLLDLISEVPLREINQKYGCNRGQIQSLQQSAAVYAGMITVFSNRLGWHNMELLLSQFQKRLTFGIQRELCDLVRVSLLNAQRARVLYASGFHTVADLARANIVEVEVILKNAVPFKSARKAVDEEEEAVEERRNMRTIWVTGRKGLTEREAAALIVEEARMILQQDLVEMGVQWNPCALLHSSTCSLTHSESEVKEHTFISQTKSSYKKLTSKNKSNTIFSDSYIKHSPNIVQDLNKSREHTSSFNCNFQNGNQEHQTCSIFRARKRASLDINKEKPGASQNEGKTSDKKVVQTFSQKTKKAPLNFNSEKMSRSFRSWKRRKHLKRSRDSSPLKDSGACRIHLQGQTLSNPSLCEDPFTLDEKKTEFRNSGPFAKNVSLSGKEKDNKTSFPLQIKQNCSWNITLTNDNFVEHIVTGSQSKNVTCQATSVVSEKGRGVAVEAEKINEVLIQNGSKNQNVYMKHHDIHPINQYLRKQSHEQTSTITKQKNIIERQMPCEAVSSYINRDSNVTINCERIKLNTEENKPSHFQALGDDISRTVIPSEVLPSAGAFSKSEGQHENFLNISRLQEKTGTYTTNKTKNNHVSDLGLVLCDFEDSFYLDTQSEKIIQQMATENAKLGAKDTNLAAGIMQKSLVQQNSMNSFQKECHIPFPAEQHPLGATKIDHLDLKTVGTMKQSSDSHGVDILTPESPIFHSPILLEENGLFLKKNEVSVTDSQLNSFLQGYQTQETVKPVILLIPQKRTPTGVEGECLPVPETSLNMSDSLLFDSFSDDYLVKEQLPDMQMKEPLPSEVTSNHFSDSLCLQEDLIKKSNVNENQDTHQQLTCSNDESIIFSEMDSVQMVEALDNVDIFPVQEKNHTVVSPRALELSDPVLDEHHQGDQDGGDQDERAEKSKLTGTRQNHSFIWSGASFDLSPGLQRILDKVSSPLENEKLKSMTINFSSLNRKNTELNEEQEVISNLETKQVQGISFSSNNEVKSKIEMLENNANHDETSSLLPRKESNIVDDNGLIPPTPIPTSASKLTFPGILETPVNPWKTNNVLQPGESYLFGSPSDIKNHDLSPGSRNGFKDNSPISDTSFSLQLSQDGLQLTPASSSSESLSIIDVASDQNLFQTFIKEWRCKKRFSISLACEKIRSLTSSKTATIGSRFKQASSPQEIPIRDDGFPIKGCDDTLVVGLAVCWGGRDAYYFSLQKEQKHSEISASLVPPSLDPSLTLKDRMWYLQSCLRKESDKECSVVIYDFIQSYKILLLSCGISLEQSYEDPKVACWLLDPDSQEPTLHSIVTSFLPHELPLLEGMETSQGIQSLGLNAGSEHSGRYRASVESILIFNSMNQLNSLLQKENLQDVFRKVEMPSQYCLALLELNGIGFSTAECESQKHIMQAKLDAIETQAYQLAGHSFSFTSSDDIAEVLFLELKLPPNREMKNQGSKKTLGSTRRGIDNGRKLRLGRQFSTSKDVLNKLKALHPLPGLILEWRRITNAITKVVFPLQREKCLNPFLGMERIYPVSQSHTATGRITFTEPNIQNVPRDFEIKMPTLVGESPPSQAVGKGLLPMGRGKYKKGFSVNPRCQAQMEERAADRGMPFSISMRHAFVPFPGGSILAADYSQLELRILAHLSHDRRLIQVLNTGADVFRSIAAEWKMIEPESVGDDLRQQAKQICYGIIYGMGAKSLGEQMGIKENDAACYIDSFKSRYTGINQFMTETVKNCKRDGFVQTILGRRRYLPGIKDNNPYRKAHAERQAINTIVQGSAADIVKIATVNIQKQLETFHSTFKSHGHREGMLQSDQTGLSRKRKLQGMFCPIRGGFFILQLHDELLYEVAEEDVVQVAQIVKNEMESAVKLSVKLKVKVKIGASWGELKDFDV
| Compound | remaining activity |
| --- | --- |
| Cc1nc2c([nH]1)c(=O)n(C)c(=O)n2Cc1ccco1 | 106% |
| Cc1ncc(C[n+]2csc(CCO)c2C)c(N)n1 | 88.7% |
| CCOC(=O)[C@H](CCc1ccccc1)N[C@@H](C)C(=O)N1CCC[C@H]1C(=O)O | 77% and 93.7% |
| C[C@]12CC[C@@H]3c4ccc(OS(=O)(=O)O)cc4CC[C@H]3[C@@H]1CCC2=O | 104% |
| NC[C@@H]1O[C@H](C23CC4CC(CC(C4)C2)C3)Cc2c1ccc(O)c2O | 105% |

Some of these lines once more (set 4):
| target | remaining binding |
| --- | --- |
| COQ8B (Homo sapiens, UniProt Q96D53) | 100% |
| BTK (Homo sapiens, UniProt Q06187) | 100% |
| ROS1 (Homo sapiens, UniProt P08922) | 94% |
| GRK7 (Homo sapiens, UniProt Q8WTQ7) | 100% |
| CASK (Homo sapiens, UniProt O14936) | 100% |
| MARK3 (Homo sapiens, UniProt P27448) | 92% |
